Assay results from different studies.
A part holds a random share of what one study measured.

Series 1
Target: Histone acetyltransferase KAT6A, winged helix 1, GST fusion (KAT6A, Homo sapiens, UniProt Q92794, residues 1-85)
Method: protein binding microarray
Molecule type: double-stranded DNA, one strand shown
Matrix: in vitro
Tested at: not given
Setting: 8-mer, flanks averaged, mean of 2 arrays, mostly near background
Baseline: not given
Reading: higher = stronger binding
Measurement: E-score
Target sequence (chain): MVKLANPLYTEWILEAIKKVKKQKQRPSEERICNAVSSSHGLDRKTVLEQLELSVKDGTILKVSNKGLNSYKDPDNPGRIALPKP
CCGATCCG: 0.313
ATTCAACG: -0.0379
CAATCAAC: -0.0374
TATAGGAA: -0.0729
GGATAGAA: -0.0174
AGTGCCGG: 0.308
CCCGCTAA: 0.317
CCAAAGAA: -0.267
AAAGACCG: 0.197
GATTGTAA: -0.125
ACGCTACA: -0.0257
CCGACAGC: 0.271

Series 2
Target: RNA binding protein fox-1 homolog 2, RRM domain, GST-SBP tag (RBFOX2, Homo sapiens, UniProt O43251-10, residues 100-194)
Method: RNA Bind-n-Seq
Molecule type: RNA
Matrix: in vitro
Tested at: 365 nM
Setting: natural RNA segment, single round, ends assumed
Baseline: no-protein control
Reading: higher = stronger binding
Measurement: RBNS enrichment (R)
Target sequence (chain): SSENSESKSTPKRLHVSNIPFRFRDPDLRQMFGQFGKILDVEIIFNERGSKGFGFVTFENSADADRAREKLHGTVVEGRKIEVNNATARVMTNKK
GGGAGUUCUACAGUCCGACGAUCCCUGUGUAGUGUGUACAGAGUGGGUAGGGACUAAACACAGGCCUAGCGUCUAUGAGUCUGUAUUCCUGCUCAGUCAUCAACUUGUGUUCCUAUUGAACAUUUGAUCAGAAUGGAAUUCUCGGGUGCCAA: 0.248
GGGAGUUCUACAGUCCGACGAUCGUUUUCUCUUUAGAAUUUUGUUAAAGAAAUUCUAAAAGUUUUAAACACCUGCUUUCCACAAUAAGCCAUGAACACUACAGUGAGAUUAGUUCCCUAUUAAUACUUCAUUUUGGAAUUCUCGGGUGCCAA: 0.612
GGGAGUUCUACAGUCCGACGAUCCUGUGCUGAGGGAGCCUGAGUGGGAGACCGCCAGCCCCAGAAGCAGAGGGCAGUCAAGGUCAAGAGCCUGUGGUCCAGCAUGCCUGGCCUGGGCGGGCUACCUCUGAGAAUGGAAUUCUCGGGUGCCAA: 0.373
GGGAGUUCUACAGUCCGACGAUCAUUACCAGCUGAGAAGCUCUCCGAAACCGGUGGCUACGGGACUCUUCAGCAUGGAGAGGACACCGUGCCCCAGGGGCCUGAGUCUCAGGCAGAGUCCAUCCCAAUAAUAGUGGAAUUCUCGGGUGCCAA: 0.526
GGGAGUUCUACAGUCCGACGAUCGUCUGAUGAGCAUUUCUGUUGCUUCCAUCAGCCAGAGCUCUGCCAAAGGCCCCGCAUCCCCAUCCUAGGAGUGCCCUAGAGACAAUUAAAUGUCCAUUCCUCUGGUGCUGUGGAAUUCUCGGGUGCCAA: 0.508
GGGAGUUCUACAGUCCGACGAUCUCCGCCCUUUCCCUGGGGAGCCAGACCCCACCCAGAAAUCCCAAGGUUCAAGGUCUUAUUUAACAAACCAGAAAAAUGCAGGCCAAGCCCUAAUUCAUCAUAUUGGUUUAUGGAAUUCUCGGGUGCCAA: 0.329
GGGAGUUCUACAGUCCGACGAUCUGAAACGGAAUCUCCACCCCAGACGUAUGAGCAUACAGCAAGACCACAGUUUCCUGGGGAGGCCUGAGUACACACAGGCCUGUGUCAGGAGGAGGGUCAUGGCUCCAAAUUGGAAUUCUCGGGUGCCAA: 0.2
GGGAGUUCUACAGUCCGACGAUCAGGUGCCACAGAGGGGCAGGCGCACCAGGGGAGGGAGUGCUCACAAGUGAGCCAUAUUUAUUGUCUUUAGGAAAUCACUAAUUGCUCUUUGACUGCACUGUGGGUGAGUGUGGAAUUCUCGGGUGCCAA: 0.976
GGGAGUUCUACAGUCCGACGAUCAAGCCAUUAGACUUAUAGGUGAUGCAAGCAUCUAAGAGAGAGGUUAAUCACACUAUAGAGGCAUAAGUGGUAUCAGUUUUCAUUUUUCUAAUUGUUUAAACUGUGUUUUAUGGAAUUCUCGGGUGCCAA: 0.653

Series 3
Target: Ras GTPase-activating protein-binding protein 1, C-terminal RGG region (G3BP1, Homo sapiens, UniProt Q13283)
UniProt Q13283, sequence (whole entry, looked up): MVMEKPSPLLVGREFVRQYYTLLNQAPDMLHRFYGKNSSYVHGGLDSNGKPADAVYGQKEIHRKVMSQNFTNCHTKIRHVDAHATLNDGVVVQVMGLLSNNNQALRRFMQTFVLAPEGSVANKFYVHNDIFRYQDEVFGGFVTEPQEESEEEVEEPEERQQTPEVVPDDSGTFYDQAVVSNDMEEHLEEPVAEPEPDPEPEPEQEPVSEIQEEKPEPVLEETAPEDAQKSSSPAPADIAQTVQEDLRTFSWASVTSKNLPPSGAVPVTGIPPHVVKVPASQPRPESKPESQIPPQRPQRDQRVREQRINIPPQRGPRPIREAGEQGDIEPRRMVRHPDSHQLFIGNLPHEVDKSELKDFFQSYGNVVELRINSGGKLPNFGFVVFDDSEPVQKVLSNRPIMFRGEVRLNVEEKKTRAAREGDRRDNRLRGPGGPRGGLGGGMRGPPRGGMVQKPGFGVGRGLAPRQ
Method: RNA Bind-n-Seq
Molecule type: RNA
Matrix: in vitro
Tested at: 1 µM
Setting: whole 134-nt RNA, ends assumed
Together with: 150 mM KCl
Baseline: input library
Reading: higher = stronger binding
Measurement: log2 enrichment
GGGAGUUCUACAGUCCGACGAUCUGGGAGGUGGAUUUUGUUUAUUUUUGUAGCUCAUUUCCAGGGGUGGGAAUUUUUUUUUAAUAUGUGUCAUGAAUAAAGUUGUUUUUGAAAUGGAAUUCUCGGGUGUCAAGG: 3.68
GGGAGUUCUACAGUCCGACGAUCUUAGGAAGAGAAGACAAGGUGGCCUCUCAUUAGAAGAAGAGGAAGAGGAGGAUGCCAAUUCAGAAUCUGAGGGAAGCAGUAGUGAGGAGGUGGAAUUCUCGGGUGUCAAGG: -2.28
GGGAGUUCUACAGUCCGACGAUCCAAGUCCUGUGCUACACAUCGUAUGUACCGAAUCGGGAAAAGGAAAAGGAAAAGGGAAAGUAUUAUGUUACGCCGUUCGGAUCUGCACUUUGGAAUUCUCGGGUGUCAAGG: -2.25
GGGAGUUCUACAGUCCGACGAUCCCUGUGCUACACAUCGUAUGUACCGAAUCGGAAAAAAAGGGAAAAAAAGGGAAAAAAAGGAAAGUAUUAUGUUACGCCGUUCGGAUCUGCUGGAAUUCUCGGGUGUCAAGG: -1.95
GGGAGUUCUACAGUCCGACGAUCCCUCAAGUCCUGUGCUACACAUCGUAUGUACCGAAUCGGAGGUUUUUGGUGGAAAGUAUUAUGUUACGCCGUUCGGAUCUGCACUUCCAGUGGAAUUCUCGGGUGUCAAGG: -0.702
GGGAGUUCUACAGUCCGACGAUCAAGUCCUGUGCUACACAUCGUAUGUACCGAAUCGGGAAAAAGGGAGGGAAAAAGGGAAAGUAUUAUGUUACGCCGUUCGGAUCUGCACUUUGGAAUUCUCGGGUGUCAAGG: 1.02
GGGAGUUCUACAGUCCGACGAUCCUGUGCUACACAUCGUAUGUACCGAAUCGGGUUUUUUUGGUUUUUUUGGGUUUUUUUGGGGAAAGUAUUAUGUUACGCCGUUCGGAUCUGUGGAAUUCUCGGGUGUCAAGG: -1.39
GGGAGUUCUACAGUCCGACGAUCUUUCGGCUACCCCCAGUUCUUCUUUGCCAAAGCGUACACGUGAAGAGGAAGAGGAUAGCACCAUAGAAGCAUCAGACCAAGUCUCUGAUGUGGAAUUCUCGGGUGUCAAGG: -1.49
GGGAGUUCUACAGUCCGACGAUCCUCAAGUCCUGUGCUACACAUCGUAUGUACCGAAUCGGGGAAGGAAGGAAGGGGAAAGUAUUAUGUUACGCCGUUCGGAUCUGCACUUCCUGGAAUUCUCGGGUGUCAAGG: -1.18

Further values, each from its own experiment
PhoQ, residues 284 288 289 292 302 303 NLSRDF
fold induction (PhoP, residues 12 14 15 18 19 TQALL (Escherichia coli, UniProt P23836); Sort-seq, refers to: YFP reporter; E. coli; PhoQ-PhoP variant library, together with: 10 µM Mg2+; baseline: high Mg2+ state, higher = stronger signaling): 10.3

Repeated from above (series 3):
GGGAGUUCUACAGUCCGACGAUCCCUCAAGUCCUGUGCUACACAUCGUAUGUACCGAAUCGGAGGUUUUUGGUGGAAAGUAUUAUGUUACGCCGUUCGGAUCUGCACUUCCAGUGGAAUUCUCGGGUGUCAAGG: -0.702
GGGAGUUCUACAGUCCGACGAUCCCUGUGCUACACAUCGUAUGUACCGAAUCGGAAAAAAAGGGAAAAAAAGGGAAAAAAAGGAAAGUAUUAUGUUACGCCGUUCGGAUCUGCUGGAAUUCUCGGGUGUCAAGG: -1.95
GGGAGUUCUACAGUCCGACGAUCCUGUGCUACACAUCGUAUGUACCGAAUCGGGUUUUUUUGGUUUUUUUGGGUUUUUUUGGGGAAAGUAUUAUGUUACGCCGUUCGGAUCUGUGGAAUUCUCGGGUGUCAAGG: -1.39
